Results pooled from the literature.
Numbered parts are unrelated; each lists some results of a single study. Substitutions count along the parent as printed.

Set 1
Target: Histone acetyltransferase KAT6A, winged helix 2, GST fusion (KAT6A, Homo sapiens, UniProt Q92794, residues 85-181)
Technique: protein binding microarray
Molecule type: double-stranded DNA, one strand shown
Matrix: in vitro
Concentration: not given
Notes: 8-mer, flanks averaged, mean of 2 arrays, mostly near background
Baseline: not given
Reading: higher = stronger binding
Target sequence (chain): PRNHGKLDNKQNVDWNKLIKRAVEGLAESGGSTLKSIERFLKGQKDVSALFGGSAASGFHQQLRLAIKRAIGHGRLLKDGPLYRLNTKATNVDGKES
Strand	E-score
ACTGCTTG	-0.172
TGAAATCA	0.12
AGTGGGTG	0.127
ATGTACGC	-0.199
CGATATTA	0.203
CGATACTA	0.0681
GCCCAAGA	0.00271
AGTGTAAA	-0.0482
CATGGTCC	-0.0605
TGAGCGAA	0.116
ACCCCGAC	-0.055
AGCGCCCG	0.294
ACGGTTTC	-0.106
CTCCTCAG	-0.0115
TGCCAGCA	0.156
CTGATTAC	-0.077
ATTTCACG	0.0609
CGTAGTAC	-0.0516
CGGATGAG	0.119
ATAACCTA	-0.112
CTCCACCC	0.131

Set 2
Target: CCND3, cyclin fold, Cln2 fusion (human)
Technique: yeast growth competition, sequencing
Matrix: yeast
Notes: weak parent motif
Baseline: not given
Reading: higher = stronger binding
Starting sequence: SAMHD1 docking peptide (human); ASKSRVQLFKDDP; partner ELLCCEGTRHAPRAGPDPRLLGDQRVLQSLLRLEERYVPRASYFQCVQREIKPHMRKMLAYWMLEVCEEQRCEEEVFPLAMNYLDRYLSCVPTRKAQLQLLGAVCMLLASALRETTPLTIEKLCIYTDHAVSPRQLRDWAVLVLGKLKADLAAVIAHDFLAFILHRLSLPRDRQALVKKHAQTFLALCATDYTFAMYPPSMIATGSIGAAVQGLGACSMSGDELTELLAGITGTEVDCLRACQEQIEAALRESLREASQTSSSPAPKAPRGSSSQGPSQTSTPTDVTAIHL
Change	normalised enrichment score
ASRSRVQLFKDDP [K3R]	0.132
ASKSRYQLFKDDP [V6Y]	0.0141
ASKVRVQLFKDDP [S4V]	-0.104
ASKSRVQLFKDLP [D12L]	-0.015
ASTSRVQLFKDDP [K3T]	-0.0495
ASWSRVQLFKDDP [K3W]	0.211
ASKSRVQLFKCDP [D11C]	0.0952
ASKKRVQLFKDDP [S4K]	-0.478
ASKSRVQEFKDDP [L8E]	0.232
ASISRVQLFKDDP [K3I]	-0.229
ASKNRVQLFKDDP [S4N]	-0.0467
ASKSRVQLFDDDP [K10D]	-0.00363
ASKTRVQLFKDDP [S4T]	0.0669
ASKSRVQLFKLDP [D11L]	0.131
ASKSRVQLFYDDP [K10Y]	-0.131
ASKSRLQLFKDDP [V6L]	-0.0277
ASKSRVQLFKFDP [D11F]	0.119
ASKSRVQSFKDDP [L8S]	-0.365
ASKSLVQLFKDDP [R5L]	-0.0688

Set 3
Target: Sal-like protein 4, full length isoform A (SALL4, Homo sapiens, UniProt Q9UJQ4, residues 1-1053)
UniProt Q9UJQ4, sequence (whole entry, looked up): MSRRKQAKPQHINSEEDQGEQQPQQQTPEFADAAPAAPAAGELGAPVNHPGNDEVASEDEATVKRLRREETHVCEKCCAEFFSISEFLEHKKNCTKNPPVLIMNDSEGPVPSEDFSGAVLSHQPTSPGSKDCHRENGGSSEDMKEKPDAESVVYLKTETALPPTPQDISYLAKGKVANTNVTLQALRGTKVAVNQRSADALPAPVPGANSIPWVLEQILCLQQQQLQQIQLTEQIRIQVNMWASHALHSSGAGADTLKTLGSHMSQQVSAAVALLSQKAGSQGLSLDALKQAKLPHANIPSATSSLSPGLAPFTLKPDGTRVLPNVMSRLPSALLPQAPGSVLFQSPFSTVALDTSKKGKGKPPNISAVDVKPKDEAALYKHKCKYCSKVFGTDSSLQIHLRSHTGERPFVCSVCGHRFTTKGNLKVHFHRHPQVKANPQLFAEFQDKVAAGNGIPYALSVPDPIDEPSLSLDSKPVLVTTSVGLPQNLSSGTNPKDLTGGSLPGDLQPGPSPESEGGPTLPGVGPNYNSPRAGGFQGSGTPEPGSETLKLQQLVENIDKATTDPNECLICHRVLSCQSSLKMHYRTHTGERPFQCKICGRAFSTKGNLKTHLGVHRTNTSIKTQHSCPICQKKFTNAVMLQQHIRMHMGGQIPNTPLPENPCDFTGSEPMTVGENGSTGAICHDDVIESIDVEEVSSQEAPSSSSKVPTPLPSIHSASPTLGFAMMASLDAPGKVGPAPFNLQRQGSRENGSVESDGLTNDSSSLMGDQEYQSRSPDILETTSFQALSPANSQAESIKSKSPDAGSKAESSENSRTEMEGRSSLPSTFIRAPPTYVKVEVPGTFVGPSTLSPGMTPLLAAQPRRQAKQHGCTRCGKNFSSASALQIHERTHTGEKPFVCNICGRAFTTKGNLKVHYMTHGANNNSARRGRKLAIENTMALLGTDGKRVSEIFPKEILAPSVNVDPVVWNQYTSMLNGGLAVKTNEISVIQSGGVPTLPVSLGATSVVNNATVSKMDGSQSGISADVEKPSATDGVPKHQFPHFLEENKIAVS
Technique: universal PBM
Molecule type: double-stranded DNA, one strand shown
Matrix: in vitro
Concentration: 600 nM
Notes: 8-mer, flanks averaged, mean of replicates
Reading: higher = stronger binding
Strand	E-score
AGGGCGGC	-0.383
AGCGAGTA	-0.104
CTCTTAGA	0.008
AGGCGGAA	0.0987
CGGTAACA	0.12
ACCCACAA	0.0677
ATGCGCGC	-0.0381
CAGCGTGA	-0.163
AACCCGCC	-0.276
ACGTTTTG	0.0935
CCTGTGGA	-0.283
GAGTAGCA	-0.0397
GGACGGAA	-0.135
TAACTCTA	0.134
ACTCCCCG	-0.203
CCGGGAAC	-0.244
CGTCATCC	-0.108
ATTGAACA	0.0747
TCCGCAGA	-0.183
CCAAAGTC	-0.086
CAATGCAG	-0.0171

Set 4
Target: RNA binding protein fox-1 homolog 2, RRM domain, GST-SBP tag (RBFOX2, Homo sapiens, UniProt O43251-10, residues 100-194)
Technique: RNA Bind-n-Seq
Molecule type: RNA
Matrix: in vitro
Concentration: 365 nM
Notes: natural RNA segment, single round, ends assumed
Baseline: no-protein control
Reading: higher = stronger binding
All sequences stand within: GGGAGUUCUACAGUCCGACGAUC … UGGAAUUCUCGGGUGCCAA
Construct (chain): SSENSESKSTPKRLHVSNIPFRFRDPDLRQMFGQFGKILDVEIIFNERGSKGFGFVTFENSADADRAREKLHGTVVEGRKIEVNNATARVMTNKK
Strand	RBNS enrichment (R)
AGGAGAGGACAAGUGGGGACAUUUCCUCGGCAUGGCCUCCAAGGCCUGCAUGGCUACACACCUGGCUCAGUGCCUCCUCCAGAUCCCCUCCUGAGGCUGCCCCAAGGCCU	1.04
AGUAUGUUUGUGUUAAUAAAGCCAGGGCGUUUCACACUUUAUAUGAACUUCCCUUUUUUUAAGAAAUGGAAAUUUGACAUGUAAAAUAAAUCAAACUUGGUAAACAGGGC	0.573
AGGAUGCUAAUCCCUAGAGCAGUUUACCAGCUAUGUGUGAAAUUGAAGCAGGUACCAUGGAUGACACGGGACUGCCCAACAACACUUGGAAAUGAUUGUUAACAUCACAG	0.304
CUGACAUGUAACCGUUUUCAGGGAAUGCAGAGGGUGUUAACUAAUAGACAAAACCUUUAUCCCGCGUGCUUUGCUUCACCUUGUGCUAUAUAGCUCUUUGGCUCGUGAAC	0.301
UCAUAUUCUUCGCUUGGCAGUGUGUAUUCUUUUCACAAGUUUGCCUAGUGUCUUGGUUUACACAAUAUGACAACUGUAACUGUACUUUAGCUAUUGUUUGCCUGCACAUA	2.57
UCUAUAUUCCUCUGUCCCGCCCAAACACCAUCUUCACUCCAAGCCUACCACAGAUGCCUGAAGAAGUUCCUCACUAUCUGCAAAUGUGGCUCUCAGGCCCUUCCUGAUGU	0.54
CCCUCACUCCCUUUUUUGUCAACCCCAUCUGUAGCCUCUUCCUCUACUCAGGCAGUCGACCCGCCACGAUGAGAAGUGGGACCAGCAGAGGGCGCCAACUUCAGGAGUCC	0.414
GCAAACACAGUUGAUUUAGGAAGUCACACAAUGACACUGAAAUCCUACAGACCAAAAUCCACUUGUCAGCAGGAGCAGCAGCCCAGGCCCAGCACCAGCGGUCUUCCGGC	0.228
AGUGGUUGCUCUGCUAAAAUAAGGGGCAUUUAAAAGCCAAAUGUAACCAUGGGAUUCAGAAGAGCACUAACCAGUGCAGCAUAGAAAUAGGAAUAGCGUAGGAAUAGAAA	0.736
UAAUCCUUGAAUAUUAGUAAGGUCCAGGAAAGUUACCAGCUGAUGGCGGAGUGAAGCUCAGCUCGGUGGUCGCUCAGAGCAGCCAGUGGUCCCCUCUGCUCUGUUCCCUC	0.37
AGGGAGACAGUUACCUAGACUACCAGGUAGAAGGGACAGGGGUCAGGUCAACCUCACACUGAUAUGCUCCUCGACUAGAGAGGUCUCCAAGCCCAGAACAGAGACUUGAA	1.05
AUUAAAAAAAUCAAAAUAAUAUUCUGUGACAAUGACAGGUGAAAUUUAUAUGUGACAAGUGAAAAUUAUAUGAAAUUUAAGAGUCCAUAAAUAAAAUUUGUUGGAACACA	0.764

Set 5
Target: Interferon regulatory factor 5, full length, phosphomimetic (IRF5, Homo sapiens, UniProt Q13568-2, residues 1-514, K96S/S451D/S453D/S456D/S462D)
Technique: protein-binding microarray
Molecule type: double-stranded DNA, one strand shown
Matrix: in vitro
Concentration: 250 nM
Notes: 60-bp whole probe
With: salmon DNA 0.4 mg/ml
Baseline: random background probes
Reading: higher = stronger binding
All sequences stand within: GCCTAGCAC … GTCTTGATTCGCTTGACGCTGCTG
Strand	log fluorescence [z-score]
TCAGCCCTCACCATCATACTGTGCTAG	-0.156
GACGAACTGAGACTGGGGACGTGCTAG	-0.154
TCATAACTCATTCTCTGACTGTGCTAG	0.464
TACGGTATCCTACTGCTGACGTGCTAG	-0.308
GACGATCTCAGTATCGAGAGGTGCTAG	1.7
GACCATATCAGTATCGAGACGTGCTAG	2.68
TTAGGACTGGGGTACCGGTTAGTGCTA	-0.338
TACGGTTTCCTTATCCTGACGTGCTAG	1.13
GACGGTATCGACACTGGGCACGTGCTA	1.52
GACGGAATGCTTTTCCTGACGTGCTAG	0.0361
GACGGTATCCTTTGCCTGACGTGCTAG	-0.0823
TTAGGACTGGACTATCGGTTGGTGCTA	4.87
TTAGATCTGAGACTGGATTAGTGCTAG	-0.238
GACGATATCAGTATCGAGATGTGCTAG	3.45
GACGGTTTCGACTTTCGCGACGTGCTA	6.38
GACGGTTTCGGACTGTGGACGTGCTAG	3.77
GACGATCTCGGTCTCGGGACGTGCTAG	0.0244
TTACATATCAGACTGGATTAGTGCTAG	0.578

For quick reference, copied from above (set 3):
Strand	E-score
CGTCATCC	-0.108
ATTGAACA	0.0747
TCCGCAGA	-0.183
CCAAAGTC	-0.086
CAATGCAG	-0.0171
